Assay results of several laboratories.
T1: RAD21/STAG2 Scc1 80-1060?, x; chain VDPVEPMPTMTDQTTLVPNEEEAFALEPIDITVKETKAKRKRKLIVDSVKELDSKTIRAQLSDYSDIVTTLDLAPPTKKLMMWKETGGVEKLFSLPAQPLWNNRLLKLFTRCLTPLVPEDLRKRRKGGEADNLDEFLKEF; chain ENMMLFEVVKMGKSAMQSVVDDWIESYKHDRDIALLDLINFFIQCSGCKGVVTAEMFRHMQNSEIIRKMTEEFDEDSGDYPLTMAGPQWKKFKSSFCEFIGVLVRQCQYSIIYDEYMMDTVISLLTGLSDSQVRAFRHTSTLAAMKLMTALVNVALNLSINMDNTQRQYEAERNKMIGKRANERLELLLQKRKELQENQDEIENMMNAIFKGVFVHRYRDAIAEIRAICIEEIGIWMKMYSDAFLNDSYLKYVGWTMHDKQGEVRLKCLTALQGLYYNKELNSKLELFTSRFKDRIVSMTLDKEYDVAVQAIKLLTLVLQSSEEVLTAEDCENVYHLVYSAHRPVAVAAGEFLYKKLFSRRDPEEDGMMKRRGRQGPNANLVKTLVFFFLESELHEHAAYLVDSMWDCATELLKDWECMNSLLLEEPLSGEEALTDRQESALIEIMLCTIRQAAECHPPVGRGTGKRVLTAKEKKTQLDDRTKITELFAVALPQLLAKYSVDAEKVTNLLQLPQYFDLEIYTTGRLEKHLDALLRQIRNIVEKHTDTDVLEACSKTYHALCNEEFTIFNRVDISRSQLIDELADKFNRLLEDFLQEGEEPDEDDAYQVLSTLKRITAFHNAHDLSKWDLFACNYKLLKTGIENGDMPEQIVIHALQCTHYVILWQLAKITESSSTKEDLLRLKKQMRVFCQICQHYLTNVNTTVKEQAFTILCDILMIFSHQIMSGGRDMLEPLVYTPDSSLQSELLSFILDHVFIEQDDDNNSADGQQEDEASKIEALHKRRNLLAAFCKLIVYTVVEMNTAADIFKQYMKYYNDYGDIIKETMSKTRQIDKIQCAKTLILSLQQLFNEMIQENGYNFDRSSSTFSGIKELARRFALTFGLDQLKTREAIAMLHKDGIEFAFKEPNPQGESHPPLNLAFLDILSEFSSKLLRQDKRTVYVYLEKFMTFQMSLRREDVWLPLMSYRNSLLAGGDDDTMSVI
B1: RB1CC1 1490-1594 (Homo sapiens, UniProt Q8TDY2); chain SRHSEKIAIRDFQVGDLVLIILDERHDNYVLFTVSPTLYFLHSESLPALDLKPGEGASGASRRPWVLGKVMEKEYCQAKKAQNRFKVPLGTKFYRVKAVSWNKKV
B2: VAMP8 8-73 (Homo sapiens, UniProt Q9BV40); chain GGNDRVRNLQSEVEGVKNIMTQNVERILARGENLEHLRNKTEDLEATSEHFKTTSQKVARKFWWKN
B3: RAD18 267-402 (Homo sapiens, UniProt Q9NS91); sequence looked up; chain IQGNKQQLIKRHQEFVHMYNAQCDALHPKSAAEIVREIENIEKTRMRLEASKLNESVMVFTKDQTEKEIDEIHSKYRKKHKSEFQLLVDQARKGYKKIAGMSQKTVTITKEDESTEKLSSVCMGQEDNMTSVTNHF
B4: GP1BA 17-306 (Homo sapiens, UniProt P07359); sequence looked up; chain HPICEVSKVASHLEVNCDKRNLTALPPDLPKDTTILHLSENLLYTFSLATLMPYTRLTQLNLDRCELTKLQVDGTLPVLGTLDLSHNQLQSLPLLGQTLPALTVLDVSFNRLTSLPLGALRGLGELQELYLKGNELKTLPPGLLTPTPKLEKLSLANNNLTELPAGLLNGLENLDTLLLQENSLYTIPKGFFGSHLLPFAFLHGNPWLCNCEILYFRRWLQDNAENVYVWKQGVDVKAMTSNVASVQCDNSDKFPVYKYPGKGCPTLGDEGDTDLYDYYPEEDTEGDKVR
B5: epg-2 (Caenorhabditis elegans, UniProt Q95XR4); sequence looked up; chain MSANRTVTVFSSSAEDQEPIELAEDSLQNLDKMLAEEKEEHQLLKDEVVLLRKENVEAKTYSTLLEIMLDEAEEKASSAQETTSEENNLKILNRDLVAENLELKEMKEELRKIWLSDSKKFQEALTRISDENTKLQKDCHELESIRQCAQFALDNCNEELEKTQTENEEHESRIETLEREVCEKDIAMKDIVERKDEISLQLELQTKEFTSALNDLMYGREDTLKQIHQMKENWKVKQNEFEVEITKLKSQNDYFDSERLQLTDRIRALLNELSDVRLELGSTRLAMKEKAEVTEAVTSFNKDLRDKLEDEIARLGECLQFRKDEHEQDEAVIAHLEEQLKLGSDKAAAFSSEHSDTIELLRESETELMELRMENYDLKEDFKILKEEKEDVNRTCECLREQLSTTIQERDIEKGQMQSEMDAKMVAVHQQYAKQIDNMKYNHMLAINQELIKGQMALESGKKKHANEILTVRNELEQSNAAHQSLRDQCSLLLSSEDDLRTAHLALESKMTLVSEECIALRVSRANAQKEIGNLTEHHKLEVALLEDAKSGIQQRLHYATIEIEQLKKINEVTQAQFKKETDEKNAEINEFQAAMVSMKQQYNVLGNHCRVLTSQGISDRTTIDKLQETIREHTELAIETKRIHDAEIVQLNDAHKKLVDNLGVEELDEEPKASTESEEKAEWEMVDEE
B6: CCDC32 101-179 (Mus musculus, UniProt Q8BS39); chain LRTLAQAKKECWDRFLQEKLASEFFVDGLDSDERTLEHFKRWLQPDKVAISTEEVQFLIPPESQAEKPEAGDKPAAAEQ
B7: RBCK1 195-442 (Homo sapiens, UniProt Q9BYM8-1); chain VGWQCPGCTFINKPTRPGCEMCCRARPEAYQVPASYQPDEEERARLAGEEEALRQYQQRKQQQQEGNYLQHVQLDQRSLVLNTEPAECPVCYSVLAPGEAVVLRECLHTFCRECLQGTIRNSQEAEVSCPFIDNTYSCSGKLLEREIKALLTPEDYQRFLDLGISIAENRSAFSYHCKTPDCKGWCFFEDDVNEFTCPVCFHVNCLLCKAIHEQMNCKEYQEDLALRAQNDVAARQTTEMLKVMLQQG
B8: POL32 1-350 (Saccharomyces cerevisiae, UniProt P47110); chain MDQKASYFINEKLFTEVKPVLFTDLIHHLKIGPSMAKKLMFDYYKQTTNAKYNCVVICCYKDQTIKIIHDLSNIPQQDSIIDCFIYAFNPMDSFIPYYDIIDQKDCLTIKNSYELKVSESSKIIERTKTLEEKSKPLVRPTARSKTTPEETTGRKSKSKDMGLRSTALLAKMKKDRDDKETSRQNELRKRKEENLQKINKQNPEREAQMKELNNLFVEDDLDTEEVNGGSKPNSPKETDSNDKDKNNDDLEDLLETTAEDSLMDVPKIQQTKPSETEHSKEPKSEEEPSSFIDEDGYIVTKRPATSTPPRKPSPVVKRALSSSKKQETPSSNKRLKKQGTLESFFKRKAK
B9: CLTB (Bos taurus, UniProt P04975); sequence looked up; chain MADDFGFFSSSESGAPEAAEEDPAAAFLAQQESEIAGIENDEGFGAPAGSQGGLAQPGPASGASEDMGATVNGDVFQEANGPADGYAAIAQADRLTQEPESIRKWREEQRKRLQELDAASKVMEQEWREKAKKDLEEWNQRQSEQVEKNKINNRIADKAFYQQPDADIIGYVASEEAFVKESKEETPGTEWEKVAQLCDFNPKSSKQCKDVSRLRSVLMSLKQTPLSR
B10: ERRFI1 330-399 E370K (human, UniProt Q9UJM3); N-terminal FITC; sequence looked up; chain SRTPSPKSLPSYLNGVMPPTQSFAPDPKYVSSKALQRQNSKGSASKVPCILPIIENGKKVSSTHYYLLPE
B11: LMNA 389-646 R482W (UniProt P02545); sequence looked up; chain LSPSPTSQRSRGRASSHSSQTQGGGSVTKKRKLESTESRSSFSQHARTSGRVAVEEVDEEGKFVRLRNKSNEDQSMGNWQIKRQNGDDPLLTYWFPPKFTLKAGQVVTIWAAGAGATHSPPTDLVWKAQNTWGCGNSLRTALINSTGEEVAMRKLVRSVTVVEDDEDEDGDDLLHHHHGSHCSSSGDPAEYNLRSRTVLCGTCGQPADKASASGSGAQVGGPISSGSSASSVTVTRSYRSVGGSGGGSFGDNLVTRSY
B12: RAV1 679-898 (Saccharomyces cerevisiae, UniProt P47104); sequence looked up; chain NTPSYLPIEKIDITAHTAHNIGDSVWMKNGTFVVASGNQFYIKDKSLDLTDPFTYQSIGSRKILSNDILHLSSVLNGPLPVYHPQFLIQAIYANKLQLVKELLLRLFLALRKLDFESQDVSNLDSNLGMDPLKYFIAKDRDYPVESFPDPYPCFNKTVSLALTEQLTKTTLPYLTRHQQITLITVIEAVDEVTKNENIVDYNGVRFLLGVKLFLSHKNIQ
B13: PGD1 1-397 (Saccharomyces cerevisiae, UniProt P40356); chain MDSIIPAGVKLDDLQVILAKNENETRDKVCKQINEARDEILPLRLQFNEFIQIMANIDQEGSKQADRMAKYLHIRDKILQLNDRFQTLSSHLEALQPLFSTVPEYLKTADNRDRSFQLLEPLSTYNKNGNAVCSTATVVSTNHSAAASTPTTTATPHANPITHAHSLSNPNSTATMQHNPLAGKRGPKSGSTMGTPTVHNSTAAAPIAAPKKPRKPRQTKKAKAQAQAQAQAQAQVYAQQSTVQTPITASMAAALPNPTPSMINSVSPTNVMGTPLTNMMSPMGNAYSMGAQNQGGQVSMSQFNGSGNGSNPNTNTNSNNTPLQSQLNLNNLTPANILNMSMNNDFQQQQQQQQQQQQPQPQYNMNMGMNNMNNGGKELDSLDLNNLELGGLNMDFL
UniProt Q13137, sequence (whole entry, looked up): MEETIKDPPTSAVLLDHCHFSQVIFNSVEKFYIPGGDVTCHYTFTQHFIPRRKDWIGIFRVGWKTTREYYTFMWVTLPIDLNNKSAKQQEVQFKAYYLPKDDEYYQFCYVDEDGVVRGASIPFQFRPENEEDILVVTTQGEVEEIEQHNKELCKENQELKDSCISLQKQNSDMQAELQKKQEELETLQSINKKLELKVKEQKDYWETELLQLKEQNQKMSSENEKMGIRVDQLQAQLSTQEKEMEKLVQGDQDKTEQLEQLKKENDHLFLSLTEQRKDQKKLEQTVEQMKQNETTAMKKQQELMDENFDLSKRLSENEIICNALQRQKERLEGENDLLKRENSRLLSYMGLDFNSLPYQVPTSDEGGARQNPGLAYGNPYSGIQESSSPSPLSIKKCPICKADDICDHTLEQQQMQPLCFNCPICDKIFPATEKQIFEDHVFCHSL
UniProt Q56235, sequence (whole entry, looked up): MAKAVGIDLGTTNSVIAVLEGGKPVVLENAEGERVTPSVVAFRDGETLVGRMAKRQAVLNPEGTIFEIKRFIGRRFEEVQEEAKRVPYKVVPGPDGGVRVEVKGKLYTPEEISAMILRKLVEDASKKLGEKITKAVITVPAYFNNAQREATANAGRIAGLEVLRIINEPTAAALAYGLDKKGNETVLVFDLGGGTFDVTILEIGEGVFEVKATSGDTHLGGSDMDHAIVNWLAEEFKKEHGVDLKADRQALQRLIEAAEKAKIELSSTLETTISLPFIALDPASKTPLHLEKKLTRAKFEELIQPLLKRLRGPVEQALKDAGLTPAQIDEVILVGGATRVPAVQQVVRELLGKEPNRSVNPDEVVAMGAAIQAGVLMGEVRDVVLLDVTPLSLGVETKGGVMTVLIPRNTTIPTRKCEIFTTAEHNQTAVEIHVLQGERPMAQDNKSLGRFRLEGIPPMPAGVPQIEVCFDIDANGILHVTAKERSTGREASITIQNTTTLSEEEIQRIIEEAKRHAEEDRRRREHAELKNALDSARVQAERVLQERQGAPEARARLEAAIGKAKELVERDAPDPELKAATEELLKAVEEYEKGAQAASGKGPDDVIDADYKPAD
UniProt P84091, sequence (whole entry, looked up): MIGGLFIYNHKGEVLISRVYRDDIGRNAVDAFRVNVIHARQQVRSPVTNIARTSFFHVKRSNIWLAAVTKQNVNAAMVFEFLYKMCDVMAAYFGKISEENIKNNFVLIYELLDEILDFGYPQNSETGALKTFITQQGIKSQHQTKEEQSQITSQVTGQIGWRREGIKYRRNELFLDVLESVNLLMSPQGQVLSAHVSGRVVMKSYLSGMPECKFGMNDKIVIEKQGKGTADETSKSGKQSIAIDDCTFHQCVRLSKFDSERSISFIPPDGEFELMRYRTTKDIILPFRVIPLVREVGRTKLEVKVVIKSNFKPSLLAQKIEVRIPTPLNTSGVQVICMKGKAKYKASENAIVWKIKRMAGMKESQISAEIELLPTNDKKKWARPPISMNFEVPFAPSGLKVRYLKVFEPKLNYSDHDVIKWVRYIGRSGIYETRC
UniProt Q12124, sequence (whole entry, looked up): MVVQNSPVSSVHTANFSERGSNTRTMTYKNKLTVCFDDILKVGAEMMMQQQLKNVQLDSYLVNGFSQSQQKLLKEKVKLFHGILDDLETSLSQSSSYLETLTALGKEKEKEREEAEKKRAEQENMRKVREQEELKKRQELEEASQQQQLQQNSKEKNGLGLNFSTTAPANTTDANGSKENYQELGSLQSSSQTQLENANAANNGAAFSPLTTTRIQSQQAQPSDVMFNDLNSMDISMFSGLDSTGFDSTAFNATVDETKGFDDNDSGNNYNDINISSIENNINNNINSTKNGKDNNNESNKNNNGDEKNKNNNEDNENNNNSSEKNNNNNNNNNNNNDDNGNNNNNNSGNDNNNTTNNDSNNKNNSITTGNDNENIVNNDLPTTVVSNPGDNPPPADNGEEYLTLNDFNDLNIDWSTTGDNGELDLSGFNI
UniProt O95721, sequence (whole entry, looked up): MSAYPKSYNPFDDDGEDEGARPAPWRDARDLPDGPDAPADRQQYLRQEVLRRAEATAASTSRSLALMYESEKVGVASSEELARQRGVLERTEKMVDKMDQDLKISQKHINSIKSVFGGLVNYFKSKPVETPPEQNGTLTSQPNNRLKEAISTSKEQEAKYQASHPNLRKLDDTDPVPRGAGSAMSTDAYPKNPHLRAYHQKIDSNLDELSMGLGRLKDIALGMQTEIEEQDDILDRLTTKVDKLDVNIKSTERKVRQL
UniProt P36956, sequence (whole entry, looked up): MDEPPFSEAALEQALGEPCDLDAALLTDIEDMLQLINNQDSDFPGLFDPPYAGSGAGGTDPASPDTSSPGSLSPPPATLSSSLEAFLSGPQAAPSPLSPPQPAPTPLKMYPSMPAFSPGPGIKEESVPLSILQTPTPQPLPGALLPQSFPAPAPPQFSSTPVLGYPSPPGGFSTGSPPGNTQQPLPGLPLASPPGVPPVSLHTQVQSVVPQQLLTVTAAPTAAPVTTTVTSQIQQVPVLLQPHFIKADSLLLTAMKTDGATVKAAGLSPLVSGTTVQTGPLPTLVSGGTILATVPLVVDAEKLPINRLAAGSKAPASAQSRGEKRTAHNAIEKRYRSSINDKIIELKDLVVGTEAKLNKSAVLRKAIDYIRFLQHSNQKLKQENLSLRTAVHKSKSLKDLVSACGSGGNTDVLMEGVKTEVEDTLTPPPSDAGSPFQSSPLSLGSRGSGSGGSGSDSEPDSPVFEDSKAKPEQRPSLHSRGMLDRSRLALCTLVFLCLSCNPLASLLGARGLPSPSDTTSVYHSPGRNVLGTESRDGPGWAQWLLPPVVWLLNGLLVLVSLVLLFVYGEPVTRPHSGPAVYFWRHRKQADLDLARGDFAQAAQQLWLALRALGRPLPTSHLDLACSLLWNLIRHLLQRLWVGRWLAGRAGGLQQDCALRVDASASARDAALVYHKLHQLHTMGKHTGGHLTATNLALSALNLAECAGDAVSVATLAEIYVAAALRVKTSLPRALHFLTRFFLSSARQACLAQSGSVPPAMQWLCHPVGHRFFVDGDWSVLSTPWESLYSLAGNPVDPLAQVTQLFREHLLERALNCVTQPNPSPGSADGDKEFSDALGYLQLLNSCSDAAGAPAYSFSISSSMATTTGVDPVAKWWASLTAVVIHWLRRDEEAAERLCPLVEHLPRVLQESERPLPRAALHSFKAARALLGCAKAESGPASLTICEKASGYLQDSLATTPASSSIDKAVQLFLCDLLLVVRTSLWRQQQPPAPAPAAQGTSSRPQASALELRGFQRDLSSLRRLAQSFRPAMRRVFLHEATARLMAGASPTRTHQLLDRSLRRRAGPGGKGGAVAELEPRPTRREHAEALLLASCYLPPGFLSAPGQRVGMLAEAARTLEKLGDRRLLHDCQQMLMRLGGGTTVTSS
UniProt Q12509, sequence (whole entry, looked up): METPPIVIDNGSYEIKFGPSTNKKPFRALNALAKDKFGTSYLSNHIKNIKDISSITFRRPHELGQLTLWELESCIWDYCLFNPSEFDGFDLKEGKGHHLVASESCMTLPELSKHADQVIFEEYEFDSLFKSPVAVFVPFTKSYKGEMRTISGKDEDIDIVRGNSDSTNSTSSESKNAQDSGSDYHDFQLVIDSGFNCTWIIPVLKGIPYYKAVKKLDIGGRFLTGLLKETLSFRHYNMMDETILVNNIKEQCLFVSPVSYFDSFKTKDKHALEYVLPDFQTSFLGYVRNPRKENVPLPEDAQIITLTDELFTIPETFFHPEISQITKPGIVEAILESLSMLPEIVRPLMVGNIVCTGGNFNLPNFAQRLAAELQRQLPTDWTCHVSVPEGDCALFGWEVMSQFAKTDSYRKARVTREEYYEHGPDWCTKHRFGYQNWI
UniProt P32563, sequence (whole entry, looked up): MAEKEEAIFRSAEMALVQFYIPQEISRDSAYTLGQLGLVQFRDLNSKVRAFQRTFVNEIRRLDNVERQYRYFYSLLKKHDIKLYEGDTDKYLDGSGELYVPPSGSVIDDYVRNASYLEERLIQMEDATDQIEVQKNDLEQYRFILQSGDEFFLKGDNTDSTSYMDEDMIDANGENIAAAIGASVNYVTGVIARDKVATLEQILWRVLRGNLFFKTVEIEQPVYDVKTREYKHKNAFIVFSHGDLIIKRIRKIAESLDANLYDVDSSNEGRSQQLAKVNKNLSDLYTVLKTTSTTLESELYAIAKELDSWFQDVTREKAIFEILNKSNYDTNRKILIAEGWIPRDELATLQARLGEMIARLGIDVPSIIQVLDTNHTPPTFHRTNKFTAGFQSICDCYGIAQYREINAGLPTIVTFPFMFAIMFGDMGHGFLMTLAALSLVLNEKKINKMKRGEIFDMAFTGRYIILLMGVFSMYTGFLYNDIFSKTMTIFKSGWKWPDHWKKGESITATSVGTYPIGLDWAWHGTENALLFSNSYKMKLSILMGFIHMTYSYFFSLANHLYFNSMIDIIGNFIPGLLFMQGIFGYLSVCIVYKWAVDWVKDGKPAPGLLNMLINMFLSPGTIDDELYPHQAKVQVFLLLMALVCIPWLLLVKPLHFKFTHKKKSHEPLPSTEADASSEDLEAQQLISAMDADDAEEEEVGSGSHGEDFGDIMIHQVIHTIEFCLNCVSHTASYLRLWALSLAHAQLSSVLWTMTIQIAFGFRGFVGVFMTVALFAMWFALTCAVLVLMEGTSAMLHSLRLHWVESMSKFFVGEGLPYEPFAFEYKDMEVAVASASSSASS

TGDPFGFDSDD (WAPL 69-79 (Homo sapiens, UniProt Q7Z5K2))
binding (T1, RAD21/STAG2 Scc1 80-1060?, x; pull-down; peptide): binds

B1 (RB1CC1 1490-1594)
binding (CALCOCO2 10-141 (Homo sapiens, UniProt Q13137); SEC): binds

B2 (VAMP8 8-73)
binding (SNAP29 (Homo sapiens, UniProt O95721); pull-down): binds

B3 (RAD18 267-402)
binding (MAGEA4 101-312 R299A (Homo sapiens, UniProt P43358); TR-FRET): binds

B4 (GP1BA 17-306)
binding (VWF mature, recombinant (Homo sapiens, UniProt P04275); ELISA): binds

B5 (epg-2)
binding (sepa-1 (Caenorhabditis elegans, UniProt G5EC37); pull-down): binds

ARP6 (Saccharomyces cerevisiae, UniProt Q12509)
binding (SWC3 (Saccharomyces cerevisiae, UniProt P31376); cryo-EM): binds

B6 (CCDC32 101-179)
binding (Ap2m1 122-435 (Mus musculus, UniProt P84091); pull-down): binds

B7 (RBCK1 195-442)
binding (linear tetra-ubiquitin four Ub units (UniProt P0CG48); ITC; 25 °C): binds

B8 (POL32 1-350)
binding (REV1 297-985 (Saccharomyces cerevisiae, UniProt P12689); cryo-EM): binds

B9 (CLTB)
binding (CLTC (Bos taurus, UniProt P49951); co-sedimentation; pH 6.5): binds

B10 (ERRFI1 330-399 E370K)
binding (EGFR 696-1022 (Homo sapiens, UniProt P00533); fluorescence polarization; apparent): binds

MLARSGE (N-tail peptide residues 1-7 (Thermus thermophilus))
binding (dnaK 388-500 (Thermus thermophilus, UniProt Q56235); NMR NOESY; peptide): binds

B11 (LMNA 389-646 R482W)
binding (SREBF1 227-487 (Homo sapiens, UniProt P36956); pull-down): binds

B12 (RAV1 679-898)
binding (VPH1 1-372 (Saccharomyces cerevisiae, UniProt P32563); pull-down): binds

B13 (PGD1 1-397)
binding (MED2 1-431 (Saccharomyces cerevisiae, UniProt Q12124); cryo-EM): binds
